Results of several laboratories.
Every numbered part comes from another study and shows a few of its results, in no order. Positions count from the first letter of the parent shown.

Sample 1
Target: ATF1, bZIP domain (human)
Technique: DHFR protein complementation
Sample: yeast
Notes: single substitutions, most at no-binding floor
Baseline: wild-type JUN-FOS pair
Direction: higher = stronger binding
Starting sequence: JUN, bZIP domain (human); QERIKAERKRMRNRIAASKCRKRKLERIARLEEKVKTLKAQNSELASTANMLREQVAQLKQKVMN; partner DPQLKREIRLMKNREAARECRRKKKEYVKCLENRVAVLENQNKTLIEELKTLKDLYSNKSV
| Variant | binding fitness [natural log] |
| --- | --- |
| L45M | -1.54 |
| A49Q | -1.48 |
| A57K | -1.47 |
| A49V | -1.52 |
| L59H | -1.53 |
| S47P | -1.49 |
| A40V | -1.47 |
| A46M | -1.28 |
| L52A | -1.55 |
| M51A | -1.49 |
| A49C | -1.47 |
| I28L | -1.39 |
| N42R | -1.51 |
| S47E | -1.5 |
| K39I | -1.47 |
| K34L | -1.49 |
| R53P | -1.56 |

Sample 2
Target: Interferon regulatory factor 7, full length, phosphomimetic (IRF7, Homo sapiens, UniProt Q92985, residues 1-503, S101K/S471D/S472D/S475D/S476D/S477D/S483D/S484D/S487D)
Technique: protein-binding microarray
Form: double-stranded DNA, one strand shown
Sample: in vitro
Concentration: 250 nM
Notes: 60-bp whole probe
With: salmon DNA 0.4 mg/ml
Baseline: random background probes
Direction: higher = stronger binding
Constant ends, left off below: GCCTAGCAC … GTCTTGATTCGCTTGACGCTGCTG
Residues (chain): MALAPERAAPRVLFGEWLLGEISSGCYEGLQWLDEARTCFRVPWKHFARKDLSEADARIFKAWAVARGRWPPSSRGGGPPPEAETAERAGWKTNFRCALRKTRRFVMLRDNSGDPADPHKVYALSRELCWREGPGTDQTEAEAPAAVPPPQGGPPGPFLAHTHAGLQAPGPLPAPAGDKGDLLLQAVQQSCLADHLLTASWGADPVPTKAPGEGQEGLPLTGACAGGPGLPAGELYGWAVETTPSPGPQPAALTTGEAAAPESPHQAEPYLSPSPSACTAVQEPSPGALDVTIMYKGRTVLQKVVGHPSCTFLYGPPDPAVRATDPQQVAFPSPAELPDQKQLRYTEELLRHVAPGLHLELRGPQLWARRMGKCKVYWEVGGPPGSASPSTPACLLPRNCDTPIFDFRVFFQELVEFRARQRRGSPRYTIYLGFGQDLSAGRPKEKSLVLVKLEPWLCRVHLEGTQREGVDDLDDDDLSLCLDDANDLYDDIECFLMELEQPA
| Oligonucleotide | log fluorescence |
| --- | --- |
| GACGATTTCAGTTTCGTGACGTGCTAG | 2.6 z-score |
| TCACTCTTCTTGCATCTGACTGTGCTA | 0.569 z-score |
| TTATGTTTCGGGTATCGGTTAGTGCTA | 3.88 z-score |
| GACGGACTGGTTATCGGGACGTGCTAG | -0.357 z-score |
| GATGGTTTCGGGACTGGGGACGTGCTA | 4.14 z-score |
| GACGGACTGGGGACTGAGGACGTGCTA | -0.949 z-score |
| GTAGGTTTCGGTTCCGGTTAGTGCTAG | 13.1 z-score |
| GAGGGTCTCCTTATCCTGACGTGCTAG | -0.21 z-score |
| TTAGATGTCGGGTTTCGATTAGTGCTA | 6.12 z-score |
| TCACATTGAGATTTCCAACTGTGCTAG | 0.324 z-score |
| GATGGTTTCGGGTTTCGGGACGTGCTA | 11.9 z-score |
| TTAAAACTGGGGACTGGATTAGTGCTA | -0.36 z-score |
| GACCGTTTCGACTTTCGGGACGTGCTA | 5.56 z-score |
| TCACTTTCCAACTCTGTTACTGTGCTA | 2.15 z-score |
| TTAGGACTGGGTTTCGGTCAGTGCTAG | 1.9 z-score |
| GACGATATCGAGTATCGAGACGTGCTA | 0.116 z-score |
| TTCGAACTGGGGTTTCGATTAGTGCTA | 6.02 z-score |
| TTGGCTTATTCCAGATTTTTGTGCTAG | -0.622 z-score |
| GACGGTAGCGGACTGGGGACGTGCTAG | -1.04 z-score |
| TTAGAACTGGGGACTGAATTAGTGCTA | -0.406 z-score |

Sample 3
Target: ABI1, truncated, D143A, DHFR fusion (Arabidopsis thaliana)
Technique: DHFR PCA, deep sequencing
Sample: yeast
Notes: methotrexate growth selection, single substitutions
With: (+)-ABA 710 µM
Baseline: wild-type fitted maximum
Direction: higher = stronger binding
Starting sequence: PYL1, truncated, DHFR fusion (Arabidopsis thaliana); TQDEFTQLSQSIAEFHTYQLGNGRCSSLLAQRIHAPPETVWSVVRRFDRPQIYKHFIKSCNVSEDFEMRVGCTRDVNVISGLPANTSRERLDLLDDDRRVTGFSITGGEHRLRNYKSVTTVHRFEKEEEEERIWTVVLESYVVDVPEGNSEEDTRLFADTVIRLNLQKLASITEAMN; partner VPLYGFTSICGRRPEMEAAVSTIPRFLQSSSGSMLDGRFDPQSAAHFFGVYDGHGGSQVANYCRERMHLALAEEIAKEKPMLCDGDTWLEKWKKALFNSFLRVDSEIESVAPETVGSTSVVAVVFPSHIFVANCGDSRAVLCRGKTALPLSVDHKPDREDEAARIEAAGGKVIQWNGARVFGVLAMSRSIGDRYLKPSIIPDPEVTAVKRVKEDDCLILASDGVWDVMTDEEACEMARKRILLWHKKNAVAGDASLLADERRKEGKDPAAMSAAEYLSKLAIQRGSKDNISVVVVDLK
| Variant | relative binding score |
| --- | --- |
| E89W | 13.9% |
| K54P | -3.24% |
| C72D | 107% |
| E131L | 111% |
| R49A | 99.4% |
| N114I | 4.15% |
| N77Y | 102% |
| R74V | -14.5% |
| F66I | 93.5% |
| V100P | -10.3% |
| V161R | -4.68% |
| R24N | 108% |
| E64T | 104% |
| E131H | 112% |
| N114Q | 80.7% |
| L91H | 2.56% |
| L138A | 53.8% |
| E174S | 96% |
| V145L | 92.7% |

Sample 4
Target: CCNA1, cyclin fold, Cln2 fusion (human)
Technique: yeast growth competition, sequencing
Sample: yeast
Notes: weak parent motif
Baseline: not given
Direction: higher = stronger binding
Starting sequence: E2F3 docking peptide (human); PPAKRRLELGESG
| Variant | normalised enrichment score |
| --- | --- |
| PPAKKRLELGESG [R5K] | -0.362 |
| PPAKRRLALGESG [E8A] | 0.33 |
| PPAKRRLELGEAG [S12A] | 0.552 |
| PPAKRRLELGASG [E11A] | 0.547 |
| PPAKRALELGESG [R6A] | 0.353 |
| PPAKRRLEAGESG [L9A] | 0.464 |
| PPAKRRAELGESG [L7A] | 0.279 |

Mixed results
| Molecule | target | test | system | conditions | scale | quantity | result |
| --- | --- | --- | --- | --- | --- | --- | --- |
| PhoQ, residues 284 288 289 292 302 303 SNSSNI | PhoP, residues 12 14 15 18 19 TPWLV (Escherichia coli, UniProt P23836) | Sort-seq, measured: YFP reporter | E. coli | PhoQ-PhoP variant library, with: 10 µM Mg2+ | baseline: high Mg2+ state, higher = stronger signaling | fold induction | 0.994 |
